{"data": "Published values from different studies", "note": "Protocols differ between the studies behind these lines. Several values in a cell are separate wells, animals, samples, runs or records. ± gives the spread as reported.", "sequence of UniProt Q86WV6 (whole entry, unmodified, looked up)": "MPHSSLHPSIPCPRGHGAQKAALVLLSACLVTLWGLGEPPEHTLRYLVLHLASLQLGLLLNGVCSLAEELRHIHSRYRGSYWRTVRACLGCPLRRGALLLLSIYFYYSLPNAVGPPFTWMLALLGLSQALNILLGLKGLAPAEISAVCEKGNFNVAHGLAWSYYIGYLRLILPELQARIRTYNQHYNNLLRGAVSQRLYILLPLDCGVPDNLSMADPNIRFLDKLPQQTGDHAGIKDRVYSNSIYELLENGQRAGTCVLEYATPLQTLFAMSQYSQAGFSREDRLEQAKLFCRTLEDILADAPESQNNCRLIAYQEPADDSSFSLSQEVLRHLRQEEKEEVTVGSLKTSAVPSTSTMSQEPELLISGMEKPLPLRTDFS"}
{"Structure (SMILES)": "COC1CN([C@H]2CC[C@H]([C@@]3(C)Oc4c(Cl)cc(C(=O)NCc5c(SC)cc(C)[nH]c5=O)c(C)c4O3)CC2)C1", "test": "RNA-seq, refers to: ARPP21 mouse homolog", "system": "mouse, HT-1376 xenograft, whole blood", "conditions": "dose not given", "scale": "baseline: vehicle", "quantity": "log2 fold change", "value": 0.794}
{"Structure (SMILES)": "CC(C)C[C@@H](NC(=O)[C@@H](CC(C)C)NC(=O)[C@@H](CC(=O)O)NC(=O)[C@@H](CC(C)C)NC(=O)[C@@H](CC(C)C)NC(=O)[C@@H](CC(C)C)NC(=O)[C@H](NC(=O)[C@@H](CC(=O)O)NC(=O)[C@H](NC(=O)[C@H]1CCCN1C(=O)[C@@H](Cc1ccccc1)NC(=O)[C@@H](CC(C)C)NC(=O)[C@@H](CC(C)C)NC(=O)[C@@H](CC(=O)O)NC(=O)[C@@H](CC(C)C)NC(=O)[C@@H](Cc1ccc(O)cc1)NC(=O)[C@@H](C)NC(=O)[C@@H](CCCNC(=N)N)NC(=O)[C@@H](Cc1c[nH]c2ccccc12)NC(=O)[C@H]1CCCN1C(=O)[C@@H](CC(N)=O)NC(=O)[C@@H](CCC(N)=O)NC(=O)[C@@H](CC(=O)O)NC(=O)[C@@H](CC(=O)O)NC(=O)[C@@H](CSC1CC(=O)N(CCNC(=O)CN2CCN(CC(=O)O)CCN(CC(=O)O)CC2)C1=O)NC(=O)[C@@H](C)N)[C@H](C)O)[C@H](C)O)C(=O)N[C@H](Cc1c[nH]c2ccccc12)C(=O)O (stereo partly shown) [fluorine-18 labelled]", "system": "female C57BL/6 mice, B16-F10 melanoma, blood", "conditions": "intravenous, 1 h", "quantity": "tissue uptake", "value": "29.3 %ID/g"}
{"Structure (SMILES)": "CC(C)C[C@H](NC(=O)[C@H](Cc1ccc(O)cc1)NC(=O)[C@@H](CCCNC(=N)N)NC(=O)[C@@H](CO)NC(=O)[C@H](Cc1ccccc1)NC(=O)[C@H](CC1CCCCC1)NC(=O)[C@H](CC(=O)O)NC(=O)CN1CCN(CC(=O)O)CCN(CC(=O)O)CCN(CC(=O)O)CC1)C(=O)N[C@@H](Cc1c[nH]c2ccccc12)C(=O)N[C@@H](CO)C(=O)O [copper-64 labelled]", "system": "human, muscle", "conditions": "concentration not given, 1 h", "quantity": "activity concentration", "value": "1110 Bq/mL and 1100 Bq/mL and 1320 Bq/mL and 1560 Bq/mL and 929 Bq/mL and 1290 Bq/mL"}
{"Structure (SMILES)": "Cc1ncsc1-c1ccc(C(C)NC(=O)C2CC(O)CN2C(=O)C(NC(=O)CCCCCCCCCCN2CCCC(Nc3ncc(Cl)c(Nc4ccccc4S(=O)(=O)C(C)C)n3)C2)C(C)(C)C)cc1 (stereo not shown)", "tested on": "22Rv1", "test": "RNA-seq, refers to: SDHAF1 mRNA", "conditions": "concentration not given", "scale": "baseline: DMSO", "quantity": "log2 fold change", "value": -1.14}
{"Structure (SMILES)": "O=C(N[C@@H](CCNC(=O)c1ccc([N+](=O)[O-])o1)c1nc2ccccc2[nH]1)c1cn(-c2ccccc2)cn1", "tested on": "STING1 (Homo sapiens, UniProt Q86WV6, H232R)", "test": "reporter gene, inhibitor", "system": "THP1-Dual KI-hSTING-R232", "conditions": "24 h, 1 h preincubation, with: diABZI 500 nM", "quantity": "EC50", "value": "19.1 µM"}
{"Structure (SMILES)": "N#C[C@@H]1CC(F)(F)CN1C(=O)CNC(=O)c1ccnc2ccc(OCCCN3CCN(C(=S)Nc4ccc(C[C@H]5CN(CC(N)=O)CCN(CC(N)=O)CCN(CC(N)=O)CCN5CC(N)=O)cc4)CC3)cc12", "test": "iTLC", "system": "mouse serum", "conditions": "72 h, 37 °C, lead-203-labelled", "quantity": "intact complex", "value": "100%"}
{"Structure (SMILES)": "CC(C)C[C@H](NC(=O)[C@@H](CCCCNC(=O)[C@@H](Cc1ccccc1)NC(=O)CCCCCNC(=O)CN1CCN(CC(=O)O)CCN(CC(=O)O)CCN(CC(=O)O)CC1)NC(=O)[C@H](Cc1ccc(O)cc1)NC(=O)[C@H](CO)NC(=O)[C@H](Cc1c[nH]c2ccccc12)NC(=O)[C@H](Cc1c[nH]cn1)NC(=O)[C@@H]1CCC(=O)N1)C(=O)N[C@@H](CCCNC(=N)N)C(=O)N1CCC[C@H]1C(=O)NCC(N)=O [indium-111 labelled]", "system": "female athymic nude mice, heart", "conditions": "intravenous, 0.037 MBq, 1 h", "quantity": "tissue uptake", "value": "0.17 ± 0.13 %ID/g"}
{"Structure (SMILES)": "C=C1CC[C@H](OCCCNC(=O)CCOCCOCCOCCOCCOCCOCCOCCOCCOCCOCCOCCOCCOCCOCCOCCOCCOCCOCCOCCOCCOCCOCCOCCOCCOCCOCCOCCOCCOCCOCCOCCOCCOCCOCCOCCOCCNC(=O)CCN2C(=O)CC(SC[C@H](NC(=O)[C@H](Cc3ccccc3)NC(=O)[C@H](CC(N)=O)NC(=O)[C@H](Cc3c[nH]cn3)NC(=O)[C@@H](NC(=O)[C@H](CC(=O)O)NC(=O)[C@H](CCC(N)=O)NC(=O)[C@H](CC(C)C)NC(=O)[C@H](CCCCN)NC(=O)[C@H](CCCCN)NC(=O)[C@H](CCCNC(=N)N)NC(=O)[C@H](CC(C)C)NC(=O)[C@H](Cc3c[nH]c4ccccc34)NC(=O)[C@H](CCC(=O)O)NC(=O)[C@@H](NC(=O)[C@H](CCCNC(=N)N)NC(=O)[C@H](CCC(=O)O)NC(=O)[C@H](CCSC)NC(=O)[C@H](CO)NC(=O)[C@H](CC(N)=O)NC(=O)[C@H](CC(C)C)NC(=O)[C@H](Cc3c[nH]cn3)NC(=O)[C@H](CCCCN)NC(=O)CNC(=O)[C@H](CC(C)C)NC(=O)[C@H](CC(N)=O)NC(=O)[C@H](Cc3c[nH]cn3)NC(=O)[C@H](CCSC)NC(=O)[C@H](CC(C)C)NC(=O)[C@H](CCC(N)=O)NC(=O)[C@@H](NC(=O)[C@H](CCC(=O)O)NC(=O)[C@H](CO)NC(=O)[C@@H](NC(=O)[C@@H](N)CO)C(C)C)[C@@H](C)CC)C(C)C)C(C)C)C(=O)O)C2=O)C/C1=C/C=C1\\CCC[C@]2(C)[C@@H]([C@H](C)CCCC(C)(C)O)CC[C@@H]12 (stereo partly shown)", "system": "rat, plasma", "conditions": "subcutaneous, 100 µg/kg, single dose", "quantity": "bioavailability", "value": "10.7%"}
{"Structure (SMILES)": "N#C[C@@H]1CC(F)(F)CN1C(=O)CNC(=O)c1ccnc2ccc(OCCCN3CCN(C(=S)Nc4ccc(C[C@H]5CN(Cc6ccccn6)CCN(Cc6ccccn6)CCN(Cc6ccccn6)CCN5Cc5ccccn5)cc4)CC3)cc12", "test": "iTLC", "system": "mouse serum", "conditions": "72 h, 37 °C, lead-203-labelled", "quantity": "intact complex", "value": "100%"}
{"Structure (SMILES)": "CCCC[C@H](NC(=O)CCCCCCCNC(=O)CN1CCN(CC(=O)O)CCN(CC(=O)O)CC1)C(=O)N[C@H]1CC(=O)NCCCC[C@@H](C(N)=O)NC(=O)[C@H](Cc2c[nH]c3ccccc23)NC(=O)[C@H](CCCNC(=N)N)NC(=O)[C@@H](Cc2ccccc2)NC(=O)[C@H](Cc2c[nH]cn2)NC1=O [technetium-99m labelled]", "system": "C57 mouse, pancreas", "conditions": "intravenous, 0.037 MBq, 2 h", "quantity": "tissue uptake", "value": "0.03 ± 0.04 %ID/g"}
{"Structure (SMILES)": "Ic1cc2nc(c1)CNCc1cc(I)cc(n1)CNC2.[Cu+2]", "test": "superoxide dismutase-like activity, McCord-Fridovich NBT", "system": "cell-free system", "conditions": "pH 7.8, with: xanthine/xanthine oxidase", "quantity": "IC50", "value": "0.352 µM"}
{"Structure (SMILES)": "N#C[C@@H]1CC(F)(F)CN1C(=O)CNC(=O)c1ccnc2ccc(OCCCN3CCN(C(=O)CN4CCN(CC(N)=O)CCN(CC(N)=O)CCN(CC(N)=O)CC4)CC3)cc12", "test": "iTLC", "system": "human serum", "conditions": "72 h, 37 °C, lead-203-labelled", "quantity": "intact complex", "value": "100%"}
{"Structure (SMILES)": "CCCC[C@H](NC(=O)COCCOCCNC(=O)CN1CCN(CC(=O)O)CCN(CC(=O)O)CC1)C(=O)N[C@H]1CC(=O)NCCCC[C@@H](C(N)=O)NC(=O)[C@H](Cc2c[nH]c3ccccc23)NC(=O)[C@H](CCCNC(=N)N)NC(=O)[C@@H](Cc2ccccc2)NC(=O)[C@H](Cc2c[nH]cn2)NC1=O [technetium-99m labelled]", "system": "C57 mouse, skin", "conditions": "intravenous, 0.037 MBq, 4 h", "quantity": "tissue uptake", "value": "0.15 ± 0.08 %ID/g"}
{"note": "Repeated from above:"}
{"Structure (SMILES)": "N#C[C@@H]1CC(F)(F)CN1C(=O)CNC(=O)c1ccnc2ccc(OCCCN3CCN(C(=S)Nc4ccc(C[C@H]5CN(CC(N)=O)CCN(CC(N)=O)CCN(CC(N)=O)CCN5CC(N)=O)cc4)CC3)cc12", "test": "iTLC", "system": "mouse serum", "conditions": "72 h, 37 °C, lead-203-labelled", "quantity": "intact complex", "value": "100%"}
